Published values of several laboratories.
Parts stem from different laboratories: compare values within a part only. Changes are numbered by the printed parent chain.

Study 1
Target: Sal-like protein 4, full length isoform B (SALL4, Homo sapiens, UniProt Q9UJQ4-2, residues 1-616)
Method: universal PBM
Molecule type: double-stranded DNA, one strand shown
Matrix: in vitro
Concentration: not given
Setting: 8-mer, flanks averaged, mean of replicates
Direction: higher = stronger binding
Endpoint: E-score
Target sequence (chain): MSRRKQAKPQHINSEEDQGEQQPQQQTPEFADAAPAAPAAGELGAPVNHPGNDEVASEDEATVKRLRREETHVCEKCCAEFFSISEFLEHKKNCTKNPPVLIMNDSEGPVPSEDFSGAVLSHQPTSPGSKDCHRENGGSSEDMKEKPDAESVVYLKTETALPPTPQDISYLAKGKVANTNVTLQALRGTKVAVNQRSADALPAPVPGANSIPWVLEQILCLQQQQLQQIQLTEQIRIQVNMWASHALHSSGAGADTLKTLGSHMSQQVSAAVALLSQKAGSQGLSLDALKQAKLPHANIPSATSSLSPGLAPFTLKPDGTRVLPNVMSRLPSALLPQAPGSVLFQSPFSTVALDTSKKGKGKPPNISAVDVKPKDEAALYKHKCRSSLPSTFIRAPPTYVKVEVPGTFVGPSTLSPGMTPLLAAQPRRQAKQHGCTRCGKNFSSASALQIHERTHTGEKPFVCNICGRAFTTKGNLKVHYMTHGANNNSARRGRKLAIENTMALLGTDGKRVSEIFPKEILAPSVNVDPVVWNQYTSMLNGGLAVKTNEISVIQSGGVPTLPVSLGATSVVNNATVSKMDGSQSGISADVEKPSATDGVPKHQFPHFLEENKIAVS
ATGGCACA: -0.0299
ATCTTTCC: 0.0792
ATCTCGTA: 0.24
CAAAGGGG: -0.126
AGTCTGCA: -0.107
GCTCTACC: -0.192
GCCCTTAC: -0.183
CAAGCAGC: -0.106
CGTACCGA: -0.19
CTACAGGA: -0.0186
CCTATTCC: -0.0113
GTGACTCA: -0.192
TACGATGA: 0.148
CCAATGAG: -0.154
ATAAAAGG: 0.185
CGCAATCA: -0.00567
AAAGCTTA: 0.147
AGTCGTTG: -0.0997
ACAATGGC: -0.0861
ATCCCTAC: 0.0556
ACCCACGC: -0.196

Study 2
Organism: Saccharomyces cerevisiae
Observed: binding
Method: yeast competitive growth sequencing
Molecule type: peptide
Strain: cyclin B3-Cln2 fusion strain
Setting: peptide tiling library
Direction: direction not given
Endpoint: enrichment score
KVKRRLDLDIDGLQKE: -1.08
GFGFLLFICKLTF: 0.0815
RRVLCFDS: -0.729
LRRKLFLDGNGSIS: -0.847
LRRQLSFSED: -0.384
ARKRLELGNLGNPQ: -1.21
RKLHFEDEVT: 0.233
VSRNLRSSLKSSLHTL: -2.18

Study 3
Target: RNA binding protein fox-1 homolog 2, RRM domain, GST-SBP tag (RBFOX2, Homo sapiens, UniProt O43251-10, residues 100-194)
Method: RNA Bind-n-Seq
Molecule type: RNA
Matrix: in vitro
Concentration: 365 nM
Setting: natural RNA segment, single round, ends assumed
Reference: no-protein control
Direction: higher = stronger binding
Endpoint: RBNS enrichment (R)
Constant ends, left off below: GGGAGUUCUACAGUCCGACGAUC … UGGAAUUCUCGGGUGCCAA
Construct (chain): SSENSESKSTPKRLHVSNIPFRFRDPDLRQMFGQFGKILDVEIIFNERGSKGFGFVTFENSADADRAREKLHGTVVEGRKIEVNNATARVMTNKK
UGGAUACCAAUCUCUCCUGUCUUUAAUGUUAUUUUCAAAGACUACUCUCAAGAUCCAUUAGCUUUUAAAAUUUCUGCCUCUGAGUCUGAAGCCCAGGUGGACAGCCAUUU: 0.551
CUGUCCUUUUGUCUACACAUGCGUGCUGACCUUACCUGUGAGUCCACUGCCUUCGUGAAGGAUGCUCCGAGCCAUGAAACAUGUUCCUAGAUGUCGUUAAUCCCACCCAC: 0.915
GGGGCCUUUCUUUAACUGCCUUCCUGGCUUAGCUCAGAUGGCAGAUGAGAGUGUAGUCAAGGGCCUGGGCACAGGAGGGAGAGCUGCAGAGUGUCCUGCCUGCCUUGGCU: 0.407
AGAUCUUACUUCUGAAUUUGAAUCGGUGGAAGACCUCAGUUCACAUGCUAAGUCAAAACGGCCCUUAGUCACGACCUUGUUGUGGCCCCUCCCUUGUCAUCAGUAGUAAC: 0.314
CUGGAAAGCGGCCAAGUUCAUCUUCUCACUGUGAGUGGAAGCUGGAUCGGGCCCCCGUAGUCCUGGCAGCCCUGUUGUCUGGAGGGUUCUUGUUGUCCCUCCCAUUAGCC: 0.355
GAAGGCAGUCGUCUCUGUUACACAGUGGCAGCUCUUGAGUUAUGCACUGUGAAGAAUGAGAAGGGAAAAGCAAAAAUUAUCCUUGUGAAAUAUCUGCUGAUUGUGCCCUA: 0.313
CUCUGUCUCAUCCAUCAUCAUGUGUGUCCACGACUGUCUCCAUGGCCCUGCAAAAGGACUCUCAGGACCAAAGCUUUCAUGUAAACUGUGCACCAAGCAGGAAAUGAAAA: 0.436
GGAAAAUUGGUGGAAAAUGCUUUUUGGGGUUACAAUUAUAUCAUUUUUAAGUGUUGAUGCUUUGUAGUACUACAAAGCUAAAUUGUGCAAACAAAACAUAUUUAACAGAG: 0.313
CCCUACUCAUUAGCUCCCUGCUCCUGGGAUGCUUCCCAAGCAGCCCAGGCCUCUAGCCUCCAUGGCUGAUGACCUCAGCUUUCACACUGGUGAAGUCUGUGUACCCAUAC: 0.537
GUGACUGAGGCUUCCACCAGAGUGCCAGGGCUCUGUGCAGACUCAGAAUCCCUGUUCCCUAUGUCACGUUCCAGCAUUGUAUAGCACAGUUCCAUGUCACAAACAGGAAG: 0.765
UUGACGUCACUCUCUCUCGACCUCCAAACAGCAGGACUCUUUCUCUGGGAAACCAUCCUUCCAAAACGGAAUCUAUGUAGACAAUGGGACGUUAGGCAGAGAGCUCAGAU: 0.31
UAAAAACUUGUCCUUUUCCUUAAAUCAAAGUAGGACUCGAGUCCUCGUUUUUCACGCUGGCUUUGUUUCAGAGGUAUACUGACUCCAGUGGUGUCAGGAUGAGGUGGCCC: 0.307

Study 4
Target: Interferon regulatory factor 7, full length, phosphomimetic (IRF7, Homo sapiens, UniProt Q92985, residues 1-503, S101K/S471D/S472D/S475D/S476D/S477D/S483D/S484D/S487D)
Method: protein-binding microarray
Molecule type: double-stranded DNA, one strand shown
Matrix: in vitro
Concentration: 250 nM
Setting: 60-bp whole probe
With: salmon DNA 0.4 mg/ml
Reference: random background probes
Direction: higher = stronger binding
Endpoint: log fluorescence
Constant ends, left off below: GCCTAGCAC … GTCTTGATTCGCTTGACGCTGCTG
Construct (chain): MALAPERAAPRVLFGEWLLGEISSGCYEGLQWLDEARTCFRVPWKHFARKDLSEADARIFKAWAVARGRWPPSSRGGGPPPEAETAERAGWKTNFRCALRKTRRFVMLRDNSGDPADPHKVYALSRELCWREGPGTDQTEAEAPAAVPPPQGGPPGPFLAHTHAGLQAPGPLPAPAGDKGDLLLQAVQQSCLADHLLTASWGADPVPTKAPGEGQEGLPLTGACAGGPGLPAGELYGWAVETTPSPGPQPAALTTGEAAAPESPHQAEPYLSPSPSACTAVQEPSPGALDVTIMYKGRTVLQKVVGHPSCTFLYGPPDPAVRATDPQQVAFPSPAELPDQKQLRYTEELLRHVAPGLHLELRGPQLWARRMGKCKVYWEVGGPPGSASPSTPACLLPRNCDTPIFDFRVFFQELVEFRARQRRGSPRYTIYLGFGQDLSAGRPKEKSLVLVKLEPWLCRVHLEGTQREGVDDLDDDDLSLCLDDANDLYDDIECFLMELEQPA
GACGGTATCGGACTGGGGATGTGCTAG: -0.152 z-score
TTAGGTATCGGTTTCTGTTAGTGCTAG: 7.89 z-score
GACGGTATCGGACTGGGGTCGTGCTAG: -0.192 z-score
GACGATTTCAGGTTTCGAGACGTGCTA: 3.79 z-score
CATCCTGAGTCAAGTCAAGTGTGCTAG: 0.213 z-score
TCAGTTTTCATTTTCTGACTGTGCTAG: 4.18 z-score
GACGGTCTCCTTCTGCTGACGTGCTAG: 0.15 z-score
GACGATTTCGGGTTTCGAGAGGTGCTA: 3.19 z-score
TTAGATCTGGGGTTTCGATTAGTGCTA: 5.26 z-score
TTAGGTAACGGACTGGGTTAGTGCTAG: -0.0253 z-score
GACAATATCGGGTATCGAGACGTGCTA: 0.0514 z-score
GACGGTATCCCTATCCTGACGTGCTAG: -0.322 z-score
TCATCTTTTCTGTTGTCACTGTGCTAG: 1.28 z-score
TTAGATTACAGACTGGATTAGTGCTAG: 0.261 z-score
GACGTTTTCGGGTATCGAGACGTGCTA: 2.15 z-score
TTGGGTTCCGGTTTCGGTTAGTGCTAG: 10.4 z-score
AACGGTTTCGGTCTCGGGACGTGCTAG: 8.5 z-score
GACGAACTGAGGTTCGAGACGTGCTAG: -0.0527 z-score
CTGCCTTCAGAGCTGTCTGTGTGCTAG: -0.33 z-score
GACGCTCTCAGTATCGAGACGTGCTAG: 0.112 z-score

Study 5
Target: OGT, full length, His-tagged (human)
Method: phage display, sequencing
Matrix: in vitro
Concentration: 1 µg OGT
Setting: single substitutions, 15-mer displayed peptide, unchanged parent 6.14
Reference: input library
Direction: higher = stronger binding
Endpoint: fold enrichment
Parent: peptide; VAYPNSYMPKYQIST
VAYPNSYIPKYQIST [M8I]: 1.99 fold
VATPNSYMPKYQIST [Y3T]: 5.49 fold
VAYPNSYMPKYEIST [Q12E]: 1.12 fold
VAYPNSYTPKYQIST [M8T]: 1.15 fold
VAYPNSYMRKYQIST [P9R]: 0.44 fold
VAYPNSYMPKYQITT [S14T]: 9.15 fold
VAYPNSYMPGYQIST [K10G]: 0.825 fold
VAYPNSYMPKYQILT [S14L]: 10.2 fold
VIYPNSYMPKYQIST [A2I]: 5.7 fold
VAYPNSYMPKYRIST [Q12R]: 0.0395 fold
VFYPNSYMPKYQIST [A2F]: 1.45 fold
VAYPNSYMPDYQIST [K10D]: 0.689 fold

Excerpt of the above (study 4):
GACGGTATCGGACTGGGGATGTGCTAG: -0.152 z-score
TTAGGTATCGGTTTCTGTTAGTGCTAG: 7.89 z-score
GACGGTATCGGACTGGGGTCGTGCTAG: -0.192 z-score
GACGATTTCAGGTTTCGAGACGTGCTA: 3.79 z-score
CATCCTGAGTCAAGTCAAGTGTGCTAG: 0.213 z-score
TCAGTTTTCATTTTCTGACTGTGCTAG: 4.18 z-score
